# Published values collected from several papers.
# ± marks the error that the study gave.
SMILES,assay,test system,setting,scale,endpoint,value
Cc1cc(-c2ccc(C(=O)[C@@H]3CCCC[C@H]3C(=O)Nc3cnn4c3C(=O)NCC4)cc2)[nH]n1,,"human, faeces","oral, 200 mg, mean of six subjects",reference: dose,cumulative recovery of radioactivity,79.3%
CC[C@H](C)[C@H](NC(=O)[C@H](Cc1ccccc1)NC(=O)[C@H](CCC(=O)O)NC(=O)[C@H](CCCCN)NC(=O)[C@H](C)NC(=O)[C@H](C)NC(=O)[C@H](CCC(N)=O)NC(=O)CNC(=O)[C@H](CCC(=O)O)NC(=O)[C@H](CC(C)C)NC(=O)[C@H](Cc1ccc(O)cc1)NC(=O)[C@H](CO)NC(=O)[C@H](CO)NC(=O)[C@@H](NC(=O)[C@H](CC(=O)O)NC(=O)[C@H](CO)NC(=O)[C@@H](NC(=O)[C@H](Cc1ccccc1)NC(=O)[C@@H](NC(=O)CNC(=O)[C@H](CCC(=O)O)NC(=O)[C@H](C)NC(=O)[C@@H](N)Cc1c[nH]cn1)[C@@H](C)O)[C@@H](C)O)C(C)C)C(=O)N[C@@H](C)C(=O)N[C@@H](Cc1c[nH]c2ccccc12)C(=O)N[C@@H](CC(C)C)C(=O)N[C@H](C(=O)N[C@@H](CCCNC(=N)N)C(=O)NCC(=O)N[C@@H](CCCNC(=N)N)C(=O)NCC(=O)O)C(C)C,LC-MS/MS,"ICR mice, male, plasma","intravenous bolus, 1 mg/kg",,AUC extrapolated percentage,0.59%
CC[C@H](C)[C@H](NC(=O)[C@H](CC(=O)O)NC(C)=O)C(=O)N[C@H](C(=O)N[C@H](C(=O)N[C@@H](CCCNC(=N)N)C(=O)N[C@@H](Cc1ccc(O)cc1)C(=O)N[C@@H](CC(N)=O)C(=O)NCC(=O)N[C@@H](CCCCN)C(=O)N[C@H](C(=O)N[C@@H](Cc1c[nH]c2ccccc12)C(=O)N[C@@H](Cc1c[nH]c2ccccc12)C(=O)N[C@@H](CCCNC(=N)N)C(=O)O)C(C)C)[C@@H](C)O)[C@@H](C)O,circular dichroism,free peptide in solution,"concentration not given, 25 °C, no insulin present",,α-helix content,3.95%
CCCCCCCC/C=C\CCCCCCCCO[Si](CCCCN(C)C)(OCCCCCCCC/C=C\CCCCCCCC)OCCCCCCCC/C=C\CCCCCCCC,,,"pH 5.5, formulated",,zeta potential,3.61 mV
CN(O)C(=O)CCC(=O)NCCCN(CCCCN(CCCNC(=O)CCC(=O)N(C)O)C(=O)CCC(=O)N(C)O)C(=O)CCC(=O)N(C)O.[89Zr],radio-TLC,aqueous buffer,"1 d, pH 8.5, 37 °C, 89Zr-labelled complex, with: DTPA 100-fold excess",,intact complex,99.7 ± 0.4%
COc1cccc(OC)c1-c1cc(C(=O)NC2(C(=O)O)C3CC4CC(C3)CC2C4)nn1-c1ccc(C(=O)N(C)CCOCCN(C)C(=O)[C@H](CCCCNC(=O)[C@H](CC(C)C)NC(=O)C2OC2C(=O)O)NC(=O)CN2CCN(CC(=O)[O-])CCN(CC(=O)[O-])CCN(CC(=O)[O-])CC2)cc1C(C)C.[177Lu+3] (mixture of isomers),,mouse HT-29 xenograft,"72 h, biodistribution",reference: tumour over small intestine,tumour-to-small intestine ratio,21.7
CC(C)[C@H](NC(=O)[C@H](Cc1c[nH]c2ccccc12)NC(=O)[C@H](CCCNC(=N)N)NC(=O)[C@H](CCCNC(=N)N)NC(=O)[C@@H](NC(=O)[C@@H](NC(=O)[C@H](CCCNC(=N)N)NC(=O)[C@@H](NC(=O)[C@@H](NC(=O)[C@H](CCCNC(=N)N)NC(=O)[C@H](CCCNC(=N)N)NC(=O)[C@@H](NC(=O)[C@H](Cc1c[nH]c2ccccc12)NC(=O)[C@H](CCCNC(=N)N)NC(=O)[C@H](CCCNC(=N)N)NC(=O)[C@@H](NC(=O)[C@H](CCCNC(=N)N)NC(=O)[C@H](CCCNC(=N)N)NC(=O)[C@@H](NC(=O)[C@H](Cc1c[nH]c2ccccc12)NC(=O)[C@H](CCCNC(=N)N)NC(=O)[C@@H](N)CCCNC(=N)N)C(C)C)C(C)C)C(C)C)C(C)C)C(C)C)C(C)C)C(C)C)C(=O)N[C@@H](CCCNC(=N)N)C(=O)N[C@@H](CCCNC(=N)N)C(=O)O,dipstick,CD-1 mice,"intravenous, 15 mg/kg, 6-24 h",,urine pH,6.5
CSCC[C@H](N)C(=O)N[C@@H](CO)C(=O)N[C@H](C(=O)N[C@@H](C)C(=O)NCC(=O)N[C@@H](CC(C)C)C(=O)N[C@@H](CCCCN)C(=O)N[C@@H](CCCCN)C(=O)N[C@@H](CCC(N)=O)C(=O)N[C@@H](Cc1c[nH]c2ccccc12)C(=O)N[C@@H](Cc1ccc(O)cc1)C(=O)N[C@@H](CCCCN)C(=O)N[C@@H](C)C(=O)N[C@@H](CO)C(=O)N[C@@H](CCC(N)=O)C(=O)N[C@@H](CC(C)C)C(=O)N[C@H](C(=O)N[C@@H](CO)C(=O)N[C@@H](CCC(=O)O)C(=O)N[C@@H](CCCCN)C(=O)N[C@H](C(=O)NCC(=O)NCC(=O)N[C@@H](C)C(N)=O)C(C)C)C(C)C)C(C)C,circular dichroism,aqueous TFE,"50 µM, pH 7.4, 20 °C",,m value,1.92 ± 0.3 kcal/mol/M
COc1cccc(OC)c1-c1cc(C(=O)NC2(C(=O)O)C3CC4CC(C3)CC2C4)nn1-c1ccc(C(=O)NCCNC(=O)[C@H](CCCCNC(=O)[C@H](CC(C)C)NC(=O)C2OC2C(=O)O)NC(=O)CN2CCN(CC(=O)[O-])CCN(CC(=O)[O-])CCN(CC(=O)[O-])CC2)cc1C(C)C.[177Lu+3] (mixture of isomers),,mouse HT-29 xenograft,"24 h, biodistribution",reference: tumour over large intestine,tumour-to-large intestine ratio,17
N#Cc1ccnc(N2C(=O)CC[C@H]2C(=O)N(c2cncc(F)c2)[C@H](C(=O)NC2CC(F)(F)C2)c2ccccc2Cl)c1,,"cynomolgus monkey, plasma",,,half-life,5.3 h
O=C([O-])CN1CCN(CC(=O)[O-])CCN(CC(CCCc2ccccc2[N+](=O)[O-])N(CC(=O)[O-])CC(=O)[O-])CC1.[177Lu+3] (centres unmarked),HPLC,human serum,"62 h, pH 7, 37 °C",,intact radiolabelled complex,100%
C=C(NC(=O)c1csc(-c2nc3c(cc2O)-c2nc(cs2)C(=O)NC(C(C)O)C(=O)NC(=C(C)OC)c2nc(cs2)C(=O)NC2c4nc(cs4)C(=O)NC(COC(=O)c4c5c6c(cccc6n4O)COC(=O)C(OC4CC(C)(O)C(N(C)C)C(C)O4)C2OC5)c2nc-3cs2)n1)C(N)=O (centres unmarked),,"ICR mice, Streptococcus pneumoniae ATCC 49169 infected, immunocompromised, blood","intravenous, 4 mg/kg/day once daily",,half-life,2.1 h
O=C(NS(=O)(=O)c1cccs1)c1cc2ccccc2n1Cc1ccc(Br)c2ccccc12,,"mouse, plasma","oral, 1 mg/kg",,MRT(0-last),0.9 h
CC(=O)N[C@@H](CC(C)C)C(=O)N[C@H](C(=O)N[C@@H](Cc1ccccc1)C(=O)N[C@H]1CCSc2c(F)c(F)c(c(F)c2F)SCC[C@@H](C(=O)N[C@@H](CCC(N)=O)C(=O)N[C@@H](CC(C)C)C(=O)N[C@H](C(=O)N[C@@H](CO)C(N)=O)[C@@H](C)O)NC(=O)[C@H](Cc2c[nH]c3ccccc23)NC(=O)[C@H](Cc2ccc(O)cc2)NC(=O)[C@H](CCC(=O)O)NC1=O)[C@@H](C)O,"reversed-phase HPLC, C18",,N-acetylated peptide,,HPLC retention time,16.4 min
Cc1ccc(CN2C(=O)/C(=N\c3ccc(Cl)cc3Br)c3ccccc32)cc1,,"mouse, blood",150 mg/kg,,MCV,46.03 ± 0.04 fL
O=C(Nc1cnccc1-c1ccc([18F])cc1)c1ccnc(NC(=O)C2CC2)c1,"ex vivo biodistribution, gamma counting","GSK-3β overexpressing transgenic mouse, late stage, pancreas","intravenous, 120 min post-injection, with: tariquidar 15 mg/kg iv, at least 120 min before tracer",,mean SUV,0.73
CCc1cnc(NC(=O)c2cc(S(=O)(=O)N3CCOCC3)ccc2N(C)C2CCCC2)s1,,"mouse, blood","10 mg/kg, 3 doses",,Neutrophils absolute count,1480 µL⁻¹
COc1ccnc(C(=O)N[C@H]2COC(=O)[C@H](Cc3ccccc3)[C@@H](OC(=O)C(C)C)[C@H](C)OC2=O)c1O,,bovine muscle,-18 °C,,storage stability,6 months
CC[C@H](C)[C@H](NC(=O)[C@H](CC(N)=O)NC(=O)[C@@H](N)CCSC)C(=O)N[C@@H](CCSC)C(=O)N[C@@H](CC(=O)O)C(=O)N[C@@H](Cc1ccccc1)C(=O)N[C@@H](CC(N)=O)C(=O)N[C@H](C(=O)N[C@@H](CCCCN)C(=O)N[C@@H](CCCCN)C(=O)N[C@@H](CC(C)C)C(=O)N[C@@H](C)C(=O)N[C@@H](C)C(=O)N[C@@H](CC(=O)O)C(=O)N[C@@H](C)C(=O)NCC(=O)N[C@H](C(=O)N[C@@H](Cc1c[nH]c2ccccc12)C(=O)N[C@@H](CC(C)C)C(=O)N[C@@H](CO)C(=O)N[C@@H](CCCNC(=N)N)C(=O)N[C@@H](C)C(=O)N[C@H](C(=O)N[C@@H](CCC(N)=O)C(=O)N[C@@H](Cc1ccccc1)C(=O)N[C@H](C(=O)N[C@@H](CCC(=O)O)C(=O)N[C@@H](CCC(=O)O)C(=O)N[C@@H](CCCCN)C(=O)N[C@@H](CC(C)C)C(=O)NCC(=O)N[C@@H](CCC(N)=O)C(=O)N[C@@H](C)C(N)=O)[C@@H](C)O)C(C)C)[C@@H](C)O)C(C)C,circular dichroism,25% DOPS/75% DOPC liposomes,1 mM lipid,,helical content,35%
CCCC[C@H](OC(C)=O)c1ccccc1C(=O)O,,"beagle dog, both sexes, whole blood","intravenous, 5 mg/kg, single dose, fitted within 1 h",,half-life,0.28 ± 0.03 h
O=C(Nc1ccc(OC(F)(F)F)cc1)NC1CCN(C(=O)C2CC2)CC1,,"Sprague-Dawley rat, male, whole blood","oral, 0.1 mg/kg",,AUC,6.48 µM·h
COc1cccc(OC)c1-c1cc(C(=O)NC2(C(=O)O)C3CC4CC(C3)CC2C4)nn1-c1ccc(C(=O)N(C)CCOCCOCCN(C)C(=O)[C@H](CCCCNC(=O)[C@H](CC(C)C)NC(=O)C2OC2C(=O)O)NC(=O)CN2CCN(CC(=O)[O-])CCN(CC(=O)[O-])CCN(CC(=O)[O-])CC2)cc1C(C)C.[177Lu+3] (mixture of isomers),,mouse HT-29 xenograft,"4 h, biodistribution",reference: tumour over large intestine,tumour-to-large intestine ratio,3.99
CC[C@H](C)[C@@H]1NC(=O)[C@H](Cc2ccc(O)cc2)NC(=O)CCCSC[C@@H](C(=O)N(CC(=O)N[C@@H](CC(C)C)C(=O)NCC(N)=O)Cc2ccc(F)cc2)NC(=O)[C@H](CC(N)=O)NC(=O)[C@H](CCC(N)=O)NC1=O,,human,"intranasal, 400 µg repeated doses",,drug-related dry mouth,33%
C/C(N)=N/C(=N\S(=O)(=O)c1ccc(C(F)(F)F)cc1)N1C[C@H](c2ccccc2)C(c2ccc(Cl)cc2)=N1,,"C57BL/6 mouse, male, lung","intravenous, 10 mg/kg",reference: lung over plasma,tissue/plasma ratio,31
OC1(C(F)(F)F)CCN(c2nc(Nc3ccnc(C(F)(F)F)c3)nc(-c3cccc(C(F)(F)F)n3)n2)C1 (centres unmarked),,"monkey, blood","oral, 3 mg/kg",,MRT(0-inf),31.5 ± 3.92 h
C=CC(=O)Nc1cc(Nc2nccc(-c3cn(C)c4ccccc34)n2)c(OC)cc1N(C)CCNC,,"human, plasma","270 ng/mL, 30 d, on ice, high QC level",,remaining compound,50%
CN(C)S(=O)(=O)c1ccc(S(=O)(=O)N2CCC(n3c(=O)[nH]c4ccccc43)CC2)cc1,HPLC,Capmul MCM,"24 h, 20 °C",,solubility,0.01 mg/mL
CCN(CC)c1ccc(-c2oc3cc4ccccc4cc3c(=O)c2O)cc1,,DMSO,,,CO release quantum yield,~0.6%
O=C(NNCc1ccccc1)C1(C(F)(F)F)CCC1,,PBS,"pH 7.4, 25 °C, 2% DMSO",,solubility,375 µM
CC(C)(O)c1ncc([S@](N)(=O)=NC(=O)Nc2c3c(cc4c2CCC4)CCC3)s1,item: infections and infestations,healthy human volunteers,"oral, 50 mg twice daily, 14 days, enteric-coated tablet",,subjects with adverse events,14%
Cc1n[nH]c(C)c1CCCOc1cc(C(=O)NCCCCC(NC(=O)CN2CCN(CC(=O)[O-])CCN(CC(=O)[O-])CCN(CC(=O)[O-])CC2)C(=O)NCC2CCC(C(=O)NC(Cc3ccc4ccccc4c3)C(=O)NCCCCC(NC(=O)NC(CCC(=O)O)C(=O)O)C(=O)O)CC2)ccc1F.[68Ga+3] (centres unmarked),micro-PET/CT,"mouse 22Rv1 xenograft, tumour",2 h post-injection,,maximum tumour uptake,16.8 ± 1.45 %ID/g
CN1CCC[C@]1(C)/C=C/S(=O)(=O)NC(=O)Nc1c2c(cc3c1CCC3)CCC2,"item: nasopharyngitis, not related",human,"oral, 50 mg twice daily, 14 days, multiple ascending dose",,subjects with adverse event,16.7%
N#Cc1cccc(-c2ccc3ncc(-c4cc(F)cc(F)c4)c(N4CCC(N)CC4)c3c2)c1OC1OC(C(=O)O)C(O)C(O)C1O (centres unmarked),,"human, urine and faeces","oral, 20 mg, with: 14C-labelled drug",reference: dose,excreted radioactivity,21.8%
O=C(Nc1cnccc1-c1ccc([18F])nc1)c1ccnc(NC(=O)C2CC2)c1,,"FVB/NJ mice, both sexes, liver","intravenous, 5 min, median, P-gp inhibitor pretreatment, with: tariquidar 15 mg/kg iv",,SUV,5.58
C=CC[C@@H]1/C=C(\C)C[C@H](C)C[C@H](OC)[C@H]2O[C@@](O)(C(=O)C(=O)N3CCCC[C@H]3C(=O)O[C@H](/C(C)=C/[C@@H]3CC[C@@H](O)[C@H](OC)C3)[C@H](C)[C@@H](O)CC1=O)[C@H](C)C[C@@H]2OC,,"kidney transplant recipients, CYP3A5 *1/*1 and *1/*3, whole blood","oral, dose not given, early phase, limited sampling",,dose-normalized AUC(0-12h),112 ± 75.4 ng·h/mL

# A few entries again:
SMILES,assay,test system,setting,scale,endpoint,value
CC(=O)N[C@@H](CC(C)C)C(=O)N[C@H](C(=O)N[C@@H](Cc1ccccc1)C(=O)N[C@H]1CCSc2c(F)c(F)c(c(F)c2F)SCC[C@@H](C(=O)N[C@@H](CCC(N)=O)C(=O)N[C@@H](CC(C)C)C(=O)N[C@H](C(=O)N[C@@H](CO)C(N)=O)[C@@H](C)O)NC(=O)[C@H](Cc2c[nH]c3ccccc23)NC(=O)[C@H](Cc2ccc(O)cc2)NC(=O)[C@H](CCC(=O)O)NC1=O)[C@@H](C)O,"reversed-phase HPLC, C18",,N-acetylated peptide,,HPLC retention time,16.4 min
Cc1ccc(CN2C(=O)/C(=N\c3ccc(Cl)cc3Br)c3ccccc32)cc1,,"mouse, blood",150 mg/kg,,MCV,46.03 ± 0.04 fL
